Published values of several laboratories.
Values joined by “and” are separate records of one study, mostly repeats; a detail may differ. Numbers after ± are the reported error.

Structure (SMILES) | target | test | system | conditions | how to read | measurement | value
CN(C)c1nccc(-c2cnc3ncccn23)n1 | human kinase panel | KINOMEscan | – | concentration not given | reference: control | remaining binding | 100% and 66%
COc1c(/C=C/c2cc(C(=O)Nc3ccc(OC4CCN(C)CC4)c(C(F)(F)F)c3)ccc2C)cnc2[nH]ccc12 | ABL/ARG kinases (human) | KiNativ profiling | Huh-7 cell lysate | 1.0 µM | – | inhibition | > 85%
C[C@H](CCC(C)(C)O)[C@H]1CC[C@H]2[C@@H]3CC=C4C[C@@H](O)CC[C@]4(C)[C@H]3CC[C@]12C | NMDA receptor, rat | ion current, potentiator | rat hippocampal neurons | added: NMDA 10 µM | – | Hill coefficient | 0.54
CC(C)Nc1cccnc1N1CCN(C(=O)c2cc3cc(NS(C)(=O)=O)ccc3[nH]2)CC1 | HIV-1 | viral replication | human immunodeficiency virus 1 | – | – | IC90 | 47.7 nM
O=C(Nc1cc(OCCN2CCCC2)c2ccccc2n1)c1cc(OCCN2CCCC2)cc(C(=O)Nc2cc(OCCN3CCCC3)c3ccccc3n2)n1 | human telomeric G-quadruplex DNA | FRET melting | – | 1 µM, pH 7.4, added: 60 mM potassium | – | ΔTm | 35.5 ± 0.8 K
Oc1ccccc1-c1n[nH]cc1-c1ccnc2ccccc12 | KNS1 (Candida albicans) | kinase binding, MIB/MS competition | Candida albicans lysate | 10 µM | reference: DMSO | log2 fold change | 0.31
CC(=O)N[C@H](C(=O)N1C[C@H](O)C[C@H]1C(=O)NCc1ccc(-c2scnc2C)cc1)C(C)(C)SCCCCCCNC(=O)C[C@@H]1N=C(c2ccc(Cl)cc2)c2c(sc(C)c2C)-n2c(C)nnc21 | human DYNC1H1 | TMT proteomics | HeLa | 3 µM, 24 h | reference: DMSO | relative protein abundance | 0.939
CCn1c(-c2nonc2N)nc2c(C#CC(C)(C)O)ncc(OC[C@H]3CCCNC3)c21 | AKT human | inhibitor | – | concentration not given | – | PRAS40 phosphorylation | inhibited
NCCOc1cc(NC(=O)c2cc(OCc3c[nH]nn3)cc(C(=O)Nc3cc(OCCN)c4ccccc4n3)n2)nc2ccccc12 | c-kit2 G-quadruplex DNA | FRET melting | – | 1 µM, pH 7.4, added: 60 mM potassium | – | ΔTm | 7.2 ± 0.6 K
CCN1CCN(Cc2ccc(NC(=O)c3cccc(Oc4ccnc5[nH]ccc45)c3)cc2C(F)(F)F)CC1 | ABL/ARG kinases (human) | kinase probe binding, inhibitor, KiNativ | Huh-7 cell lysate | 1.0 µM | – | inhibition | > 96%
Nc1nc2c(nc(Br)n2[C@@H]2O[C@@H]3COP(=O)(O)O[C@H]3[C@H]2O)c(=O)[nH]1 | cone CNG channel | – | striped bass (Morone saxatilis), cone outer segment | 30 µM, -35 mV | – | steady-state current | -415 ± 107 pA
COc1cc(C(=O)Nc2cc(OC)c3ccccc3n2)nc(C(=O)Nc2cc(OC)c3ccccc3n2)c1 | c-kit2 G-quadruplex DNA | FRET melting | – | 1 µM, pH 7.4, added: 60 mM potassium | – | ΔTm | 1.1 ± 0.5 K
c1coc(-c2n[nH]cc2-c2ccnc3ccccc23)c1 | KNS1 (Candida albicans) | kinase binding, MIB/MS competition | Candida albicans lysate | 10 µM | reference: DMSO | log2 fold change | 0.01
Cc1c(O)cccc1C(=O)N[C@@H](CSc1ccccc1)[C@H](O)CN1C[C@H]2CCCC[C@H]2C[C@H]1C(=O)NC(C)(C)C | HIV-1 | viral replication | human immunodeficiency virus 1 | – | – | IC90 | 42 nM
c1ccc(-c2n[nH]cc2-c2ccnc3ccccc23)nc1 | orf19.4575 kinase Candida albicans | MIB/MS competition binding | Candida albicans cell lysate | 1 µM | reference: DMSO, lower = stronger binding | log2 fold change | 1.18
C#CCOc1cc(C(=O)Nc2cc(OCCCN)c3ccccc3n2)nc(C(=O)Nc2cc(OCCCN)c3ccccc3n2)c1 | double-stranded DNA | FRET melting | – | 1 µM, pH 7.4, 60 mM potassium, added: oligonucleotide 200 nM | – | delta Tm | 0 ± 0.1 K
CC(Nc1nc(N2CCCC2)nc2ccccc12)c1ccccc1 (centres unmarked) | importin α/β1 | cMyc nuclear import, high content imaging | HeLa Kyoto reporter | 10.01 µM, 2 h | – | cells with nuclear reporter | 91.4% and 99%
Cc1cccc(-c2[nH]c(C(C)(C)C)nc2-c2ccc3c(c2)OCO3)n1 | Ub^G76V-GFP reporter | reporter degradation | human cells | 12 µM | – | inhibition | 12%
O=C(Nc1cc(OCCN2CCCC2)c2ccccc2n1)c1cc(Cl)cc(C(=O)Nc2cc(OCCN3CCCC3)c3ccccc3n2)n1 | c-kit2 G-quadruplex DNA | FRET melting | – | 1 µM, pH 7.4, added: 60 mM potassium | – | ΔTm | 9.6 ± 0.7 K
N#Cc1ccc2c(-c3ccncc3)c(-c3ccc(F)cc3)nn2c1 | orf19.4575 kinase Candida albicans | MIB/MS competition binding | Candida albicans cell lysate | 100 nM | reference: DMSO, lower = stronger binding | log2 fold change | 0.102
CN(C)CCCOc1cc(NC(=O)c2cc(Cl)cc(C(=O)Nc3cc(OCCCN(C)C)c4ccccc4n3)n2)nc2ccccc12 | c-kit2 G-quadruplex DNA | FRET melting | – | 1 µM, pH 7.4, added: 60 mM potassium | – | ΔTm | 9.7 ± 0.5 K
O=C(O)CC[C@H](O)C(=O)O | calcineurin, human | phosphatase activity, cell pretreatment then lysate | Jurkat cells | 30000 µM, 30 min, added: PMA plus A23187 15 min | – | inhibition | ~25%
CN(C)CCCNc1cc2c(=O)n(CCCN(C)C)c(=O)c3c4[nH]c5ccccc5[nH]c4c4c(=O)n(CCCN(C)C)c(=O)c1c4c23 | double-stranded DNA | FRET melting | – | 0.25 µM, K+ 100 mM | – | ΔTm | 0.5 ± 0.1 °C
N#Cc1ccn2c(-c3ccncc3)c(-c3ccc(F)cc3)nc2c1 | orf19.4575 kinase Candida albicans | MIB/MS competition binding | Candida albicans cell lysate | 10 µM | reference: DMSO, lower = stronger binding | log2 fold change | 0.119
Cc1cc(F)cc2c(CCC(=O)N[C@@H]3C(=O)NC[C@H]3O)c(-c3ccc(F)cc3)[nH]c12 | sodium channel site 2 | binding | – | 10 µM | – | inhibition | -1%
NCCOc1cc(NC(=O)c2cc(OCc3ccc(F)cc3)cc(C(=O)Nc3cc(OCCN)c4ccccc4n3)n2)nc2ccccc12 | c-kit2 G-quadruplex DNA | FRET melting | – | 1 µM, pH 7.4, added: 60 mM potassium | – | ΔTm | 9.4 ± 0.3 K
CN(C)CCCn1c(=O)c2ccc3c(=O)n(CCCN(C)C)c(=O)c4c5[nH]c6cc([N+](=O)[O-])ccc6[nH]c5c(c1=O)c2c34 | double-stranded DNA | FRET melting | – | 0.25 µM, K+ 100 mM | – | ΔTm | 1.6 ± 0.5 °C
NCCCOc1cc(NC(=O)c2cc(Cl)cc(C(=O)Nc3cc(OCCCN)c4ccccc4n3)n2)nc2ccccc12 | double-stranded DNA | FRET melting | – | 1 µM, pH 7.4, 60 mM potassium, added: oligonucleotide 200 nM | – | delta Tm | 0.4 K
Fc1ccccc1Nc1nc(NCC2CCCO2)c2ccccc2n1 (centres unmarked) | Trypanosoma cruzi ribosome | translation, measured: Renilla luciferase | Trypanosoma cruzi extract | 40 µM | – | inhibition | 79%

For quick reference, copied from above:
Structure (SMILES) | target | test | system | conditions | how to read | measurement | value
CCN1CCN(Cc2ccc(NC(=O)c3cccc(Oc4ccnc5[nH]ccc45)c3)cc2C(F)(F)F)CC1 | ABL/ARG kinases (human) | kinase probe binding, inhibitor, KiNativ | Huh-7 cell lysate | 1.0 µM | – | inhibition | > 96%
NCCCOc1cc(NC(=O)c2cc(Cl)cc(C(=O)Nc3cc(OCCCN)c4ccccc4n3)n2)nc2ccccc12 | double-stranded DNA | FRET melting | – | 1 µM, pH 7.4, 60 mM potassium, added: oligonucleotide 200 nM | – | delta Tm | 0.4 K
c1coc(-c2n[nH]cc2-c2ccnc3ccccc23)c1 | KNS1 (Candida albicans) | kinase binding, MIB/MS competition | Candida albicans lysate | 10 µM | reference: DMSO | log2 fold change | 0.01
COc1c(/C=C/c2cc(C(=O)Nc3ccc(OC4CCN(C)CC4)c(C(F)(F)F)c3)ccc2C)cnc2[nH]ccc12 | ABL/ARG kinases (human) | KiNativ profiling | Huh-7 cell lysate | 1.0 µM | – | inhibition | > 85%
Nc1nc2c(nc(Br)n2[C@@H]2O[C@@H]3COP(=O)(O)O[C@H]3[C@H]2O)c(=O)[nH]1 | cone CNG channel | – | striped bass (Morone saxatilis), cone outer segment | 30 µM, -35 mV | – | steady-state current | -415 ± 107 pA
